Results gathered from unrelated publications.
Each line is one published result; not all experiments were run side by side.

`CC(C)c1ccc(N(C)c2ccc3c(c2)OCC[C@H]3CNc2cnccc2C(=O)O)cc1` — result for “tumour growth inhibition”: 90% (mouse, OCI-LY19 xenograft; 50 mg/kg QD, day 21).
Under “tumour growth inhibition”, `CC1(C)CCC(CN2CCN(c3ccc(C(=O)NS(=O)(=O)c4ccc(NCC5CCOCC5)c([N+](=O)[O-])c4)c(Oc4cnc5[nH]ccc5c4)c3)CC2)=C(c2ccc(Cl)cc2)C1` is recorded as 50% (mouse Toledo xenograft; oral, 15 mg/kg once daily, day 31).
For `COC(=O)C1CN1S(=O)(=O)c1ccc2cc(C)ccc2c1` (stereo not shown), “tumour growth inhibition” read 58% (mouse, Lewis lung carcinoma; ip, 100 mg/kg, 360 h).
Under “tumour growth inhibition”, `Cc1[nH]nc2c1N=C(c1ccccc1Cl)c1cnc(N3CCOCC3)cc1N2` is recorded as 61.5% (mouse HCC1806 TNBC xenograft; oral, 5 mg/kg once daily).
`Cc1noc2c1-c1ccccc1C(c1ccc(Cl)cc1)=N[C@H]2CC(N)=O`: “tumour growth inhibition” 88% (mouse, MV4-11 subcutaneous xenograft; 60 mg/kg, 14 days).
`C=CC(=O)N1CC2C(=O)N(CCN(C)C)c3c(c4cc(Cl)c(-c5c(O)cccc5F)nc4n(-c4c(C)ccnc4C(C)C)c3=O)N2CC1C` (stereo not shown): “tumour growth inhibition” 65.9% (mouse, NCI-H2122 subcutaneous xenograft; oral, 30 mg/kg once daily).
For `CC(C)c1ccccc1[C@@H]1CCCN1C1CC2(CCN(c3ccc(C(=O)NS(=O)(=O)c4ccc(NC[C@H]5CC[C@](C)(O)CC5)c([N+](=O)[O-])c4)c(Oc4cnc5[nH]ccc5c4)c3)CC2)C1`, “tumour growth inhibition” read 103% (mouse Maver1 xenograft; oral, 15 mg/kg once daily, day 14).
Under “tumour growth inhibition”, `COc1c(Cl)cccc1Nc1c(-c2ccncc2C#C[C@@]2(C)CCCN2C(=O)/C=C/CN(C)C)[nH]c2c1C(=O)NCC2` is recorded as 130% (female NOD/SCID mouse, PDX; 100 mg/kg once daily, 21 days, HER2 YVMA).
`Cc1cc(NC(=O)C(=O)N2C[C@@H](C)CC[C@@H]2c2ccc3scnc3c2)cnc1N` — result for “tumour growth inhibition”: 89% (bioluminescence; mouse, U-87 MG MTAP-null orthotopic glioblastoma; 120 mg/kg twice daily, day 20).
`CCCCCc1ccc(S(=O)(=O)N2CC2C(=O)OC)cc1` (stereo not shown): “tumour growth inhibition” 48% (mouse, Lewis lung carcinoma; intraperitoneal, 5 mg/kg, 16 doses, day 10).
